Experimental data pooled from the literature.
Numbered parts are unrelated; each lists some results of a single study.

Sample 1 — cell line: mouse MPNST tumor cells; method: high-content nuclear imaging; item: cell number; tested at: 10 µM; time: 12 h; notes: mean of 2 replicates; reference: plate mean; direction: higher = more cells; endpoint: nuclei count
CC(C)(CO)C(O)C(=O)NCCCO (centres unmarked): 1.06 z-score
NCCCC(N)(C(=O)O)C(F)F (centres unmarked): 1 z-score
CCn1cc(C(=O)O)c(=O)c2cc(F)c(N3CCNCC3)cc21: 1.52 z-score
N[C@@H](CC(=O)Nc1ccc(Oc2cc(F)c(F)cc2Br)cc1)C(=O)O: 1.21 z-score
CC(C)(C)C(=O)OCC(=O)[C@H]1CC[C@H]2[C@@H]3CCC4=CC(=O)CC[C@]4(C)[C@H]3CC[C@]12C: 0.38 z-score

Sample 2 — organism: Sarcocystis neurona; observed: parasite growth; tested at: 10 µM; notes: secondary screen; endpoint: inhibition
Nc1cc(N2CCCCC2)nc(N)[n+]1[O-]: -31.6%
CCc1oc2ccccc2c1C(=O)c1cc(Br)c(O)c(Br)c1: 1.8%
COC1=CC(=O)C[C@@H](C)[C@]12Oc1c(Cl)c(OC)cc(OC)c1C2=O: -47%
COc1cc([C@@H]2c3cc4c(cc3[C@H](O)[C@H]3COC(=O)[C@H]23)OCO4)cc(OC)c1OC: 1.1%
CC(C)(C)NCC(O)c1cc(O)cc(O)c1 (centres unmarked): -42%

Sample 3 — observed: ligand displacement; tested at: 10 µM; endpoint: inhibition
Target: Beta-1 adrenergic receptor (ADRB1, Homo sapiens, UniProt P08588)
UniProt P08588, sequence (whole entry, looked up): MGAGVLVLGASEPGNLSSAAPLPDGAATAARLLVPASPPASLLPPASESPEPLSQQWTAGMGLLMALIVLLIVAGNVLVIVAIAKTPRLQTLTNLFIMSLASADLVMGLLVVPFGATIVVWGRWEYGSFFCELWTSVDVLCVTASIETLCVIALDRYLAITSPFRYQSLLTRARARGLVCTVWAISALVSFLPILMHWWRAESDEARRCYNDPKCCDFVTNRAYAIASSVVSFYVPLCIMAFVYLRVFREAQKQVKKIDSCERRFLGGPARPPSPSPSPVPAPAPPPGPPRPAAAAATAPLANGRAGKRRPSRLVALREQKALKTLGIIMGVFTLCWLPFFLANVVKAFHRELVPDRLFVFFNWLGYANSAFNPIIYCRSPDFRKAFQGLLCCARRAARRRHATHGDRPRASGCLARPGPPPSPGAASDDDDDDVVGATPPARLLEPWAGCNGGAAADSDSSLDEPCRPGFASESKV
CN([C@@H]1CCc2c(CC(=O)O)c3ccccc3n2C1)S(=O)(=O)c1ccc(F)cc1: -2.68%
NC(=O)c1ccc2nc(-c3ccc(C4(N)CCC4)cc3)c(-c3ccccc3)n2n1: 16.8%
COc1cc(C(=O)O)ncc1C#Cc1ccccc1NS(=O)(=O)c1cccc2c(N(C)C)ccnc12: 16.7%
Cc1ccccc1Oc1cc(-n2c(=O)cc(C(F)(F)F)[nH]c2=O)c2ccccc2c1Cl: -5.52%
O=c1nc(-c2ccccn2)sc2ccccc12: -8.56%
C[C@H](c1ccnc(Nc2nc3ccc(-c4cc(N(C)C)ncn4)cc3[nH]2)c1)N1CCN(C(=O)CC(F)(F)F)CC1: 24.3%
Cn1nc(C(=O)NCc2ccc(C(=O)O)cc2)cc1-c1ccc2[nH]ccc2c1: -18.9%
CN1CCN(c2cnc3c(C4CCN(C(=O)c5ccc(OC(F)(F)F)cc5N)CC4)ncnc3c2)CC1: 12.6%
c1ccc(C2CCN(c3cnc4c(N5CCOCC5)nccn34)CC2)cc1: 23.5%
Nc1cnc(N2CCc3cc(S(=O)(=O)Nc4c(F)cc(Cl)cc4F)cc(N4CCCC4=O)c32)nc1: 8.84%
COc1cccc(NC(=O)c2nc3scc(CN(C)Cc4ccccc4)c3c(=O)[nH]2)c1: 30.8%
CC(=O)Nc1ncc(CN2CCC[C@H](Cc3cc(C)nc(C)c3)C2)s1: 3.29%
CN1CCN(C(=O)C(C)(C)c2ccc(C(=O)Nc3cn4cc(-c5cc(C(C)(C)C)cc(C(C)(C)C)c5)ccc4n3)cc2)CC1: 28%
Cc1c(NC(=O)c2cc(C(N)=O)nc3cc(F)ccc23)c(C(F)(F)F)nn1Cc1ccc(C#N)cc1: 28.5%

Sample 4 — cell line: A-375; tested at: 100 µM; time: 36 h; endpoint: viability
Cc1cnc(C(=O)O)c[n+]1[O-]: 78%
Cc1cn(-c2cc(NC(=O)c3ccc(C)c(Nc4nccc(-c5cccnc5)n4)c3)cc(C(F)(F)F)c2)cn1: 1.52%
COc1cc(C(=O)NS(=O)(=O)c2ccccc2C)ccc1Cc1cn(C)c2ccc(NC(=O)OC3CCCC3)cc12: 46.3%
CCOc1ccc(Cc2nccc3cc(OCC)c(OCC)cc23)cc1OCC: 43.4%
Cc1c(N(C)C)c(=O)n(-c2ccccc2)n1C: 113%

For quick reference, copied from above (sample 1):
NCCCC(N)(C(=O)O)C(F)F (centres unmarked): 1 z-score
CCn1cc(C(=O)O)c(=O)c2cc(F)c(N3CCNCC3)cc21: 1.52 z-score
